Assay results pooled from the literature.
Parts stem from different laboratories: compare values within a part only. Positions count from the first letter of the parent shown.

Series 1 — method: universal PBM; molecule type: double-stranded DNA, one strand shown; sample: in vitro; tested at: not given; reading: higher = stronger binding
Target: Sal-like protein 4, full length isoform B (SALL4, Homo sapiens, UniProt Q9UJQ4-2, residues 1-616)
Setting: 8-mer, flanks averaged, mean of replicates
For `GCGTTGAA`, the E-score was -0.14.
With `ATGGTTCA` the E-score was 0.0902.
`AAGCGAGA` gave an E-score of 0.00164.
`ATCTAAGC` has an E-score of -0.04.
The E-score of `CACAGGGA` is reported as -0.189.
The E-score of `CCAACTCG` is reported as -0.121.
`ATGCAATA` has an E-score of 0.271.
For `CTAGTTGA`, the E-score was -0.0328.
For `AGCGGTAC`, the E-score was -0.121.
With `AGGCTGTC` the E-score was -0.224.
The E-score of `CCGAAAGC` is reported as -0.199.
The E-score of `GAACACCA` is reported as -0.0342.
The E-score of `AAGCTCAG` is reported as -0.0586.
`CGAAGGAA` gave an E-score of -0.0324.
`ACACGCAA` gave an E-score of 0.0644.
With `TGGGTGAA` the E-score was 0.191.

Series 2 — method: RNAcompete; molecule type: RNA; sample: in vitro; tested at: 20 nM; setting: 7-mer, probes averaged, single round; baseline: mean of 7-mers; reading: higher = stronger binding
Target: PABPC1L2, full length, GST fusion (mouse, UniProt A0ABA7IW68)
Construct (chain): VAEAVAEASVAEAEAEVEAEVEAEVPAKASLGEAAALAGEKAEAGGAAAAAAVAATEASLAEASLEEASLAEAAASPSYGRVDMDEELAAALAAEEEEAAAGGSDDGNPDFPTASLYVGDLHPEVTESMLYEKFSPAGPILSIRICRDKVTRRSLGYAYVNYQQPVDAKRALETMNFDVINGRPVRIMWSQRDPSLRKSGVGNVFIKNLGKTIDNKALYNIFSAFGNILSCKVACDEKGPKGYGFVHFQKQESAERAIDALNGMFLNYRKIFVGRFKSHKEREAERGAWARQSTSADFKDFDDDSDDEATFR
`GUCCCUA` gave a 7-mer Z-score of -0.373.
The 7-mer Z-score of `UAGAGCG` is reported as -0.0826.
With `CUCCGUC` the 7-mer Z-score was -0.418.
`UGCCGCC` has a 7-mer Z-score of -0.237.
`CUUGGAG` gave a 7-mer Z-score of -0.141.
`CUUAACA` has a 7-mer Z-score of -0.155.
`GCUAACU` gave a 7-mer Z-score of -0.251.
For `UGUAGUU`, the 7-mer Z-score was -0.267.
`AAAAGGC` has a 7-mer Z-score of 3.27.
With `UAUCUAU` the 7-mer Z-score was -0.177.
For `AGACGCC`, the 7-mer Z-score was -0.32.
The 7-mer Z-score of `CCUUCAG` is reported as -0.374.
`UACCACA` gave a 7-mer Z-score of -0.106.
With `CCAUUAA` the 7-mer Z-score was 0.00798.
With `UCACUGG` the 7-mer Z-score was -0.235.
`GAUUGUG` has a 7-mer Z-score of -0.271.
`GGCCUCC` has a 7-mer Z-score of -0.374.
`AAGGACC` has a 7-mer Z-score of 0.236.
The 7-mer Z-score of `ACAGUUA` is reported as -0.0283.
The 7-mer Z-score of `GCGGCCU` is reported as -0.28.
For `GUUUUGA`, the 7-mer Z-score was -0.309.
With `CAGGUAG` the 7-mer Z-score was 0.0533.

Series 3 — target: CCND1, cyclin fold, Cln2 fusion (human); method: yeast growth competition, sequencing; sample: yeast; setting: weak parent motif; baseline: not given; reading: higher = stronger binding
Starting sequence: E2F1 docking peptide (human); PPVKRRLDLETDH; partner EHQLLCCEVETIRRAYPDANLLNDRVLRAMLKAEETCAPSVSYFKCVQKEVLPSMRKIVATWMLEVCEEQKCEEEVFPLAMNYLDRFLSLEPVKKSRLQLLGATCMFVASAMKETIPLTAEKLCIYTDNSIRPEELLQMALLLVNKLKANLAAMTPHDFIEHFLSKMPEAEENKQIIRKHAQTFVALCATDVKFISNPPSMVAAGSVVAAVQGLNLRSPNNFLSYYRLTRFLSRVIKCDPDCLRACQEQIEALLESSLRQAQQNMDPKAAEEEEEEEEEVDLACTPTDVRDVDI
`V3C`: “normalised enrichment score” 0.263.
`E10T`: “normalised enrichment score” 0.217.
Under “normalised enrichment score”, `L7H` is recorded as -0.0456.
`R5F` — result for “normalised enrichment score”: 0.842.
`E10I` — result for “normalised enrichment score”: 0.369.
Under “normalised enrichment score”, `D12Q` is recorded as 0.744.
`H13P`: “normalised enrichment score” 0.727.
`P2Q` — result for “normalised enrichment score”: 0.103.
For `R5G`, “normalised enrichment score” read 0.112.
`E10F`: “normalised enrichment score” 0.169.
Under “normalised enrichment score”, `E10P` is recorded as -0.106.
`P2A` — result for “normalised enrichment score”: 0.0788.
Under “normalised enrichment score”, `L7E` is recorded as 0.00121.
For `K4Y`, “normalised enrichment score” read -0.193.
Under “normalised enrichment score”, `T11Q` is recorded as -0.0832.
For `E10C`, “normalised enrichment score” read 0.242.
For `P1H`, “normalised enrichment score” read 0.645.
`D8H`: “normalised enrichment score” -0.522.
`E10W`: “normalised enrichment score” 0.131.
`P2R`: “normalised enrichment score” -0.189.
Under “normalised enrichment score”, `T11G` is recorded as -0.0154.
Under “normalised enrichment score”, `R5M` is recorded as 0.671.
`P2D` — result for “normalised enrichment score”: 0.831.
`L9F` — result for “normalised enrichment score”: 3.24.
`R6G`: “normalised enrichment score” 0.452.

Series 4 — target: NFE2L3, bZIP domain (human); method: DHFR protein complementation; sample: yeast; baseline: wild-type JUN-FOS pair; reading: higher = stronger binding
Setting: single substitutions, most at no-binding floor
Starting sequence: JUN, bZIP domain (human); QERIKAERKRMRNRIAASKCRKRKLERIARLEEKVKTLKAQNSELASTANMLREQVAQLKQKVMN; partner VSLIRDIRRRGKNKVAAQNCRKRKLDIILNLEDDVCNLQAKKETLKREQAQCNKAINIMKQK
`E32Q` gave a binding fitness of -1.43 natural log.
The binding fitness of `L52W` is reported as -1.4 natural log.
The binding fitness of `E33M` is reported as -1.5 natural log.
With `A49N` the binding fitness was -1.47 natural log.
With `E33L` the binding fitness was -1.47 natural log.
With `E44Q` the binding fitness was -1.47 natural log.
The binding fitness of `L45F` is reported as -1.3 natural log.
`A57W` gave a binding fitness of -1.42 natural log.
`L31D` has a binding fitness of -1.56 natural log.
For `A29G`, the binding fitness was -1.5 natural log.
`T48G` has a binding fitness of -1.56 natural log.
With `L38G` the binding fitness was -1.48 natural log.
With `Q41D` the binding fitness was -1.28 natural log.
The binding fitness of `Q55I` is reported as -1.51 natural log.
`S47W` gave a binding fitness of -1.37 natural log.
The binding fitness of `T37L` is reported as -1.35 natural log.
The binding fitness of `A29C` is reported as -1.46 natural log.
`E54V` has a binding fitness of -1.59 natural log.
The binding fitness of `V35H` is reported as -1.63 natural log.
With `V35A` the binding fitness was -1.39 natural log.
`M51G` gave a binding fitness of -1.34 natural log.
`L52R` has a binding fitness of -1.5 natural log.
With `I28C` the binding fitness was -1.43 natural log.

Series 5 — method: RNA Bind-n-Seq; molecule type: RNA; sample: in vitro; tested at: not given; baseline: input RNA pool; reading: higher = stronger binding
Target: RING finger protein unkempt homolog, zinc fingers 1-6, GST-SBP tag (UNK, Homo sapiens, UniProt Q9C0B0, residues 30-357)
UniProt Q9C0B0, sequence (30-357, looked up): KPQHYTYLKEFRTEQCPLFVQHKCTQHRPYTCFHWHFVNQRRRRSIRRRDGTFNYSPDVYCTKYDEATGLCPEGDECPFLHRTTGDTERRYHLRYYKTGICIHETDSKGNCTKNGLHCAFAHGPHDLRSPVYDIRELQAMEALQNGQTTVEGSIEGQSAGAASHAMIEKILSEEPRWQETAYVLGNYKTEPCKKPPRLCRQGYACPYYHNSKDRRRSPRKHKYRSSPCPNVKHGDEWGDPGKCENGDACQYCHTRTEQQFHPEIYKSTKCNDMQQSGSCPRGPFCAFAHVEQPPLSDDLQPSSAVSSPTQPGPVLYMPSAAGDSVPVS
Setting: RNA with constant flanks, human-mouse chimeric sites, ends assumed
With `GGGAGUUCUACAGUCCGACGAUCAAAGAACCUCUCUCUGAUGAAGAUGAGGAAGACAAUGAUGAUGUUGAACCCAUUUCUGAAUUUCGAUUUGUGCCCAGUGAUAAGUCAGCGUUGGAGGCGAUGUUCACAGCAAUGUGUGAGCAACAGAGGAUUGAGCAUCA` the bound/input enrichment was 0.244 ratio.
`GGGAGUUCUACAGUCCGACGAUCCUGUGUGUGCUGAAUAAAUGGCUUGUAAAGAAGUUUUUCCAAGCUGUACCCAUGUACGUUAUUAUAGUUGCUGCAAAAUGUUCUUCCUGAUAUUGAUUUUAUUUGUUAACUGAAGGUCUCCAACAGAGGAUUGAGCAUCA` has a bound/input enrichment of 0.646 ratio.
The bound/input enrichment of `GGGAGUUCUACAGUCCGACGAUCGCUCUUGGGAAUGUAAUCAGCGCCUUGGGGGACAAGAGCAAGAGAGCCACCCAUGUCCCCUAUAGAGAUUCCAAGCUGACAAGACUCUUGCAGGAUUCCCUUGGGGGUAACAGCCAAACCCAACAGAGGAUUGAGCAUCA` is reported as 0.17 ratio.
For `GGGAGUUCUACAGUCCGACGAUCGUACUGCAGCAGCAGGGAAAACUGCAGGAAGCUCUGAUGCAUUAUAAGGAGGCUAUUCGAAUUAGUCCUACAUUUGCUGAUGCCUACUCUAAUAUGGGAAACACUCUAAAGGAGAUGCAGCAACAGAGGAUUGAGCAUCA`, the bound/input enrichment was 0.543 ratio.
`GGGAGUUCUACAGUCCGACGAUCUCUUUAAAUGCACUACAACCUUUUCUGACAGUGCUUUCCCUCCCAUAGAUCCACGUUCAAGCUCAAAGAGCAAAGGCUUUGCACGGAUCUGAUGAUGCUGAUGAAGAAAGAUUUCUGAGACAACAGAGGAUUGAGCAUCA` has a bound/input enrichment of 0.236 ratio.
With `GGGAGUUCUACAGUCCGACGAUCAGAUUCCCCCUCCUGAGACCUCCUCCGAAAUUGGCAUCUCUUACAGAUGCCUCAUCCCCUGUUAGCGUUUUAGUUUGGACCACCCAGCCUUGGACGAUUCCCGCCAACCAGGCAAUUUGCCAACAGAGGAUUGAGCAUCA` the bound/input enrichment was 1.23 ratio.
For `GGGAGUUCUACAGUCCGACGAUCAAAGAGAAACUAAAGCAACUAAUAGAGAAGAGGAUUGGCAAAGAGAAUUUCAUAGAGAAACUAGGAUUUUAUUAGCAACAUGAGUUAUAUUCCAGAGGCAUCUCAGAACCCCAGCCAAACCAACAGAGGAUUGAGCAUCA`, the bound/input enrichment was 17.8 ratio.
The bound/input enrichment of `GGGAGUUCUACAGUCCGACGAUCGAGCCAAGCCGGCAGUUUGUAAAGGACUCAAUUCGGCUGGUUAAAAGAUGCACCAAACCCGACAGAAAAGAAUUCCAGAAGAUUGCCAUGGCUACAGCAAUAGGAUUUGCUAUCAUGGGACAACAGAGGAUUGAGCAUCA` is reported as 0.113 ratio.

Repeated from above (series 1):
For `GCGTTGAA`, the E-score was -0.14.
With `ATGGTTCA` the E-score was 0.0902.
`AAGCGAGA` gave an E-score of 0.00164.
`ATCTAAGC` has an E-score of -0.04.
The E-score of `CACAGGGA` is reported as -0.189.
The E-score of `CCAACTCG` is reported as -0.121.
`ATGCAATA` has an E-score of 0.271.
